Experimental data of several laboratories.
Organism: Klebsiella pneumoniae

Structure (SMILES)	test	test system	conditions	MIC
C[C@@H](O)[C@H]1C(=O)N2C(C(=O)O)=C(SCCN=CN)C[C@H]12	–	NCCP 15866 carbapenem-resistant, Mueller-Hinton broth	16 h, 37 °C	64 µM
C[C@@H](O)[C@H]1C(=O)N2C(C(=O)O)=C(S[C@@H]3CN[C@H](C(=O)N(C)C)C3)[C@H](C)[C@H]12	broth microdilution	KPC-25 producing	–	4 mg/L
CC(=O)N[C@@H](CCCCN)C(=O)N[C@@H](CCCCN)C(=O)N[C@@H](CC(C)C)C(=O)N[C@@H](CC(C)C)C(=O)N[C@@H](CCCCN)C(=O)N[C@@H](CC(C)C)C(=O)N[C@@H](CC(C)C)C(=O)N[C@@H](CCCCN)C(=O)N[C@@H](C)C(=O)N1CCC[C@H]1C(=O)N[C@@H](CC(C)C)C(=O)N[C@@H](CCCCN)C(=O)N[C@@H](CC(C)C)C(=O)N[C@@H](CC(C)C)C(=O)N[C@@H](CCCCN)C(N)=O	broth microdilution	ATCC 700603	18 h, 37 °C, compound alone	> 80 µM
C[C@@H](O)[C@H]1C(=O)N2C(C(=O)O)=C(S[C@@H]3CN[C@H](C(=O)N(C)C)C3)[C@H](C)[C@H]12	broth microdilution	ATCC 43816 acrAB overexpressor	together with: colistin 0.5 mg/L	< 0.5 mg/L
CC[C@H](C)[C@H](NC(=O)CN)C(=O)NCC(=O)N[C@@H](CCCCN)C(=O)N[C@@H](Cc1ccccc1)C(=O)N[C@@H](CC(C)C)C(=O)N[C@@H](CCCCN)C(=O)N[C@@H](CCCCN)C(=O)N[C@@H](C)C(=O)N[C@@H](CCCCN)C(=O)N[C@@H](CCCCN)C(=O)N[C@@H](Cc1ccccc1)C(=O)NCC(=O)N[C@@H](CCCCN)C(=O)N[C@@H](C)C(=O)N[C@@H](Cc1ccccc1)C(=O)N[C@H](C(=O)N[C@@H](CCCCN)C(=O)N[C@H](C(=O)N[C@@H](CC(C)C)C(=O)N[C@@H](CCCCN)C(=O)N[C@@H](CCCCN)C(N)=O)[C@@H](C)CC)C(C)C	broth dilution	ATCC 700603	–	< 3.1 µM
C[C@H]1COc2c(N3CCN(C)CC3)c(F)cc3c(=O)c(C(=O)O)cn1c23	broth microdilution	ATCC 43816 acrAB overexpressor	–	< 0.5 mg/L
NCCCC1CN(c2ccc3c(n2)NC(=O)CO3)C(=O)O1 (stereo not shown)	–	ATCC 13883	–	160 mg/L
NC(=O)[C@@H]1CC[C@@H]2CN1C(=O)N2OS(=O)(=O)O	–	ATCC BAA-2146 NDM-1 ESBL	compound alone	8 mg/L
COc1ccc2ccc(O)c(/C=N/[C@H]3CCCC[C@H]3/N=C/c3c(O)cccc3F)c2c1	bacterial growth, broth microdilution	carbapenem-resistant	–	> 40 µM
CN(C)[C@@H]1C(O)=C(C(N)=O)C(=O)[C@@]2(O)C(O)=C3C(=O)c4c(O)c(N)nc(F)c4C[C@H]3C[C@@H]12.Cl.Cl	–	tet(A)-carrying	–	> 32 mg/L

Excerpt of the above:
Structure (SMILES)	test	test system	conditions	MIC
CC[C@H](C)[C@H](NC(=O)CN)C(=O)NCC(=O)N[C@@H](CCCCN)C(=O)N[C@@H](Cc1ccccc1)C(=O)N[C@@H](CC(C)C)C(=O)N[C@@H](CCCCN)C(=O)N[C@@H](CCCCN)C(=O)N[C@@H](C)C(=O)N[C@@H](CCCCN)C(=O)N[C@@H](CCCCN)C(=O)N[C@@H](Cc1ccccc1)C(=O)NCC(=O)N[C@@H](CCCCN)C(=O)N[C@@H](C)C(=O)N[C@@H](Cc1ccccc1)C(=O)N[C@H](C(=O)N[C@@H](CCCCN)C(=O)N[C@H](C(=O)N[C@@H](CC(C)C)C(=O)N[C@@H](CCCCN)C(=O)N[C@@H](CCCCN)C(N)=O)[C@@H](C)CC)C(C)C	broth dilution	ATCC 700603	–	< 3.1 µM
